Assay results collected from several papers.
Parts stem from different laboratories: compare values within a part only. Substitutions count along the parent as printed.

Sample 1 — target: CCNA1, cyclin fold, Cln2 fusion (human); technique: yeast growth competition, sequencing; medium: yeast; setting: weak parent motif; relative to: not given; direction: higher = stronger binding
Starting sequence: BRCA2 docking peptide (human); PSIKRNLLNEFDR; partner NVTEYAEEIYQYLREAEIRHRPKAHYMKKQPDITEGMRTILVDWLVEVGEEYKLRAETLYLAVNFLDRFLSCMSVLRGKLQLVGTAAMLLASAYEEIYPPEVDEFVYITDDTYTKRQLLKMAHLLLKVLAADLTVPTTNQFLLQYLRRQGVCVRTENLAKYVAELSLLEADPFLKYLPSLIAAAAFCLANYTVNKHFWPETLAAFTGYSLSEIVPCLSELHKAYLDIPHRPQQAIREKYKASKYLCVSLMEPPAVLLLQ
Under “normalised enrichment score”, `E10R` is recorded as -0.0176.
`L8F`: “normalised enrichment score” 0.541.
`E10C`: “normalised enrichment score” 0.16.
`R5D` — result for “normalised enrichment score”: 0.461.
For `D12S`, “normalised enrichment score” read 0.329.
Under “normalised enrichment score”, `I3P` is recorded as 0.437.
`P1D`: “normalised enrichment score” 0.439.
`E10A` — result for “normalised enrichment score”: 0.282.
`R5L`: “normalised enrichment score” -0.0611.
Under “normalised enrichment score”, `E10I` is recorded as 0.0975.
`L7Y`: “normalised enrichment score” 0.0865.
`E10K` — result for “normalised enrichment score”: -0.136.
Under “normalised enrichment score”, `N9F` is recorded as 0.11.
`D12Y` — result for “normalised enrichment score”: 0.464.
For `K4H`, “normalised enrichment score” read 0.466.
`N9Q`: “normalised enrichment score” 0.548.
`S2D`: “normalised enrichment score” 0.45.
For `P1V`, “normalised enrichment score” read 0.577.
`L8M`: “normalised enrichment score” 0.724.
For `R13A`, “normalised enrichment score” read 0.733.
`N6M`: “normalised enrichment score” 0.15.
For `D12G`, “normalised enrichment score” read 0.395.
`D12A`: “normalised enrichment score” 0.72.
`E10W` — result for “normalised enrichment score”: 0.487.
`K4R`: “normalised enrichment score” 0.431.

Sample 2 — technique: DHFR PCA, deep sequencing; medium: yeast; together with: (+)-ABA 0.11 µM; relative to: wild-type fitted maximum; direction: higher = stronger binding
Target: ABI1, truncated, D143A, DHFR fusion (Arabidopsis thaliana)
Setting: methotrexate growth selection, single substitutions
Starting sequence: PYL1, truncated, DHFR fusion (Arabidopsis thaliana); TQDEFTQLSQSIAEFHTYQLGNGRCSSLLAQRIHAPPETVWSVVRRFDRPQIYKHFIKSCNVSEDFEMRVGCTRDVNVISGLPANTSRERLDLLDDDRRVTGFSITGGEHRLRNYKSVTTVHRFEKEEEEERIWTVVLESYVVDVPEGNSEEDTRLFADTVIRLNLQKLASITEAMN
For `T160F`, “relative binding score” read 55.4%.
For `T120V`, “relative binding score” read -5.57%.
Under “relative binding score”, `L93P` is recorded as 6.4%.
`A13G`: “relative binding score” 9.85%.
Under “relative binding score”, `D75Q` is recorded as 46.9%.
`E127F`: “relative binding score” 24.3%.
For `Q19L`, “relative binding score” read 4.52%.
`S27H` — result for “relative binding score”: 8.05%.
`N165W`: “relative binding score” 4.59%.
Under “relative binding score”, `I105A` is recorded as -10.1%.
`T135E` — result for “relative binding score”: -9.26%.
`N149L`: “relative binding score” 26.5%.
`L156I` — result for “relative binding score”: 21.4%.
For `S26M`, “relative binding score” read 6.12%.
`R69F` — result for “relative binding score”: 1.25%.

Sample 3 — technique: protein-binding microarray; form: double-stranded DNA, one strand shown; medium: in vitro; tested at: 2540 nM top; setting: 60-bp whole probe; together with: salmon DNA 0.4 mg/ml; relative to: random background probes; direction: higher = stronger binding; all sequences stand within: GCCTAGCAC … GTCTTGATTCGCTTGACGCTGCTG
Target: Interferon regulatory factor 3, full length, phosphomimetic (IRF3, Homo sapiens, UniProt Q14653, residues 1-427, S386D/S396D/S398D/S402D/T404D/S405D)
UniProt Q14653, sequence (whole entry, unmodified, looked up): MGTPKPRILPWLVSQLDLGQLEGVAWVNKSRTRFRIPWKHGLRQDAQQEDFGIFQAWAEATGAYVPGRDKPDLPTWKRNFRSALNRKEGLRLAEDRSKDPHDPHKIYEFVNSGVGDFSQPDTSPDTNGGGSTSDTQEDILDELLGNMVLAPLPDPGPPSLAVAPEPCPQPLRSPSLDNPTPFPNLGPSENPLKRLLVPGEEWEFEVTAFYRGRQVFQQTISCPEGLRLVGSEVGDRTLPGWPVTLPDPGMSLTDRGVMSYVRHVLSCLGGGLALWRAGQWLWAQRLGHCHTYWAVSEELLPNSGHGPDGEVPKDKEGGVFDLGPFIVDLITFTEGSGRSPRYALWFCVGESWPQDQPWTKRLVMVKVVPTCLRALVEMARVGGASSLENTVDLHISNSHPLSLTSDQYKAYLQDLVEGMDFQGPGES
`TTAGGCTTCCTACTGCTTTAGTGCTAG`: “fitted relative affinity” -0.458 z-score.
`GACGGTATCAACTTTCGGGACGTGCTA`: “fitted relative affinity” 1.38 z-score.
For `GACGGACGGGGTATCGGGACGTGCTAG`, “fitted relative affinity” read -0.279 z-score.
`TTAGGTATCGGCATCGGTTAGTGCTAG`: “fitted relative affinity” 0.658 z-score.
Under “fitted relative affinity”, `TTAGGCCTCGGTATCGGTTAGTGCTAG` is recorded as 0.796 z-score.
Under “fitted relative affinity”, `TTAGGTGTCGGTATCGGTTAGTGCTAG` is recorded as 3.85 z-score.
`GACCATCTCAGTTTCGAGACGTGCTAG` — result for “fitted relative affinity”: 3.05 z-score.
Under “fitted relative affinity”, `GACGCTCTCAGTATCGAGACGTGCTAG` is recorded as 0.482 z-score.
`CAGAGTCTAGCCATTGTGGGTGTGCTA`: “fitted relative affinity” -0.736 z-score.
`TTAGATCTCAGGATCGATTAGTGCTAG` — result for “fitted relative affinity”: 0.198 z-score.
`TTAAGTATCGACACTGGGTTAGTGCTA` — result for “fitted relative affinity”: 0.35 z-score.
For `CTAGGTTTCGACACTGGGTTAGTGCTA`, “fitted relative affinity” read 2.41 z-score.
`GACGGGCTGGGGTTTCGGGACGTGCTA`: “fitted relative affinity” 0.0945 z-score.
`TTAGATCTCAGTATCGATGAGTGCTAG` — result for “fitted relative affinity”: 0.484 z-score.
`TTTCTTTTGCTTGTTCTTAGCGTGCTA` — result for “fitted relative affinity”: 2.3 z-score.
`GACGGTTCCGGTTTGGGGACGTGCTAG` — result for “fitted relative affinity”: 3.33 z-score.
Under “fitted relative affinity”, `GACGAACTGAGGTTCGAGACGTGCTAG` is recorded as -0.257 z-score.

Sample 4 — technique: RNA Bind-n-Seq; form: RNA; medium: in vitro; tested at: not given; relative to: input RNA pool; direction: higher = stronger binding
Target: RING finger protein unkempt homolog, zinc fingers 1-6, GST-SBP tag (UNK, Homo sapiens, UniProt Q9C0B0, residues 30-357)
UniProt Q9C0B0, sequence (30-357, looked up): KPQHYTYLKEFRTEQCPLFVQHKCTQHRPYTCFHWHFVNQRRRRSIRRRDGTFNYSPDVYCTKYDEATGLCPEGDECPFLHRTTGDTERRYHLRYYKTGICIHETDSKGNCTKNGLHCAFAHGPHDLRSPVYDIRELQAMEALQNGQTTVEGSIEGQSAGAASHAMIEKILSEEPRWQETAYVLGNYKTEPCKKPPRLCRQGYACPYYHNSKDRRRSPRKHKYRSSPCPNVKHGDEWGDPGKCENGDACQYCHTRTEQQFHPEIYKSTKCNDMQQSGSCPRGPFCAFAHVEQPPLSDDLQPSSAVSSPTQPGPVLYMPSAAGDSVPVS
Setting: RNA with constant flanks, human and mouse sites, ends assumed
For `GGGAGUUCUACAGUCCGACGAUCCGCUAUUGUGUUUCAACAAGAGACUUGCCCUCCCUGUUGUCUUCCACUGUACAUGCUGUAUAUAGGGGUCACGUGAUGCCGCUGAAGACAAGAAUAAACUGGAGUAGAUUAGUUUGCUGUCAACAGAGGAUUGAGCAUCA`, the bound/input enrichment was 0.269 ratio.
`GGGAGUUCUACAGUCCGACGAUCUGGACUCACGUUGGACCUACUCCUGCGAUAACUAUUAAGGAAACAGUUGCCAACCACUUGUAGUUACAAAACCAAACCUGGGACAUACUUACUUCGCAGGUAUAAAGCCUCAGUUUUAACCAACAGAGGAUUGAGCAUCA` gave a bound/input enrichment of 0.245 ratio.
For `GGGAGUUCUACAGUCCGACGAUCUUAUUUAAGCAUUGAGUGCAUUAGAAUUUAUUUACAGAGUGCAUGAUGUUCUGACUCUAGUUUAGAUUUAUUUAAGAAACCAAAUCUCCAGAUUUUUUCAGGACACAGGAUCUUAGACUUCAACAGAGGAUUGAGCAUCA`, the bound/input enrichment was 2.54 ratio.
`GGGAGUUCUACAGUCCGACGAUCUUAAAAUAGAUGAUUAUAACGGGGCAGAGAACUUUCUUUUCUCUGCAAGAAUGUUACAUAUUGUAUAGAUAAAUGAGUGACAUUUCAUACCAUGUAUAUAUAGAGAUGUUCUAUAAGUGUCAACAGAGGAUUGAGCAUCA` gave a bound/input enrichment of 1.53 ratio.
With `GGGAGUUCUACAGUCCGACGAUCCAUGGAAAUAUUAUCUACAUCCACAUAAGAGAUAAAACCUGGGAUGUACAUGAAUAUUUGAAUAGUCUUUUUGAAGAAUUAAAAUCUUGGAGAGAUGUUUAUUGGCGUUUGUGGGGCACACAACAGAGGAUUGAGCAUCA` the bound/input enrichment was 0.628 ratio.
The bound/input enrichment of `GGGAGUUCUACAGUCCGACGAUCCCGUGGCGCUCCAACUUCCUUCCCUGCCUUUUCCCUCCAAGCUCCUAUUUUACUGUGUCAGCUGGAAGGAAACCUUUCCCUCUUGGGACCUCUUUACCCUCUGUGACCUGUGGGGUUAGACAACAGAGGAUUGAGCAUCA` is reported as 0.46 ratio.
`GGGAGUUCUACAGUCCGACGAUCUUGACUCUCCUCUUUACAGAGCUAGCAAAAGUAAUAGAGAGCUCUGCAAAGGGUUUCCCUAGUUUUAUCUCUGAUAUGCUGUCUAAGUGCAAAGUUCAGAAAGUGAUUCUUCAUUGUUUGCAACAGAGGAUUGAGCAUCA` gave a bound/input enrichment of 7.79 ratio.
`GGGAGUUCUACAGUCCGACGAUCGAUUCUUAUAUCAAAGCAGAUGAUCCUUCCUCCUACAUGGAAGUUGUUCAGGCUGCCAAUACUAGUGGAAACUGGGAAGAACUGGUGAAGUACUUGCAGAUGGCCCGUAAGAAGGCUCGACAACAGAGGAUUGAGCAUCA` has a bound/input enrichment of 0.113 ratio.
`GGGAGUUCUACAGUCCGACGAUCAUUGCUGUCACCACCAUCGACAAUAUUGGUGCUGGUGUGAUCCAGCCAGGCCGAGGUUUUGUUCUUUAUCCAGUGAAAUACAAAGCUAUUGUUUUCCGGCCCUUUAAAGGUGAAGUGGUGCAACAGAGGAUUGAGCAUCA` gave a bound/input enrichment of 0.238 ratio.
`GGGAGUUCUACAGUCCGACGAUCAGAAAUUUUUGUAUUUUUCUUUUACAGAUUUUAACUACGAUGAUUUUUUUCUAAAUUAAGUAGGUCAGGUUGUCAAAGUCAGUGCAAUAGUAAUACAACUUCCUUUUUAAGAAAACCCAACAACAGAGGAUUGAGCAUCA` gave a bound/input enrichment of 0.497 ratio.
For `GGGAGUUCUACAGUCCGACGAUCGGCUAUACAUCUGCUAAUUUUUCUGGGAGAAUGCCAUGCAUUGAGGUUGGCGAUAGUAUUGUUCACAAAGCCAGAGAGACCUUGGAACGAGCUAUUAAACUGGUGAAUGAUACCAAGAAACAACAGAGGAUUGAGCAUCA`, the bound/input enrichment was 0.208 ratio.

Excerpt of the above (sample 1):
`D12Y` — result for “normalised enrichment score”: 0.464.
`E10C`: “normalised enrichment score” 0.16.
`N9Q`: “normalised enrichment score” 0.548.
`R5L`: “normalised enrichment score” -0.0611.
For `P1V`, “normalised enrichment score” read 0.577.
